Published values of several laboratories.
± gives the spread as reported.
AURKA: Aurora kinase A (AURKA, Homo sapiens, UniProt O14965)
Chain of UniProt O14965 (whole entry, looked up): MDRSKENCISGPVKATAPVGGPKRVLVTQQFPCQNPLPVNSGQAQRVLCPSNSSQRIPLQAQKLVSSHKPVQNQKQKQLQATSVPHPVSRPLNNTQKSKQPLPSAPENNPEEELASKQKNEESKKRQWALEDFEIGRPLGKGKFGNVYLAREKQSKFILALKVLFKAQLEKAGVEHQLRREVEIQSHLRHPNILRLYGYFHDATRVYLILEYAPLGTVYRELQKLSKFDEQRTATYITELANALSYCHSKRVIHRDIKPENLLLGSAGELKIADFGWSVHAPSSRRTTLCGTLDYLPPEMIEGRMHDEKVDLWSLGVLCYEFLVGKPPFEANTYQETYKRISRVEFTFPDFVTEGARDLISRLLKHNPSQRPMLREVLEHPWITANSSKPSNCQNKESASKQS
Chain of UniProt P41587 (whole entry, looked up): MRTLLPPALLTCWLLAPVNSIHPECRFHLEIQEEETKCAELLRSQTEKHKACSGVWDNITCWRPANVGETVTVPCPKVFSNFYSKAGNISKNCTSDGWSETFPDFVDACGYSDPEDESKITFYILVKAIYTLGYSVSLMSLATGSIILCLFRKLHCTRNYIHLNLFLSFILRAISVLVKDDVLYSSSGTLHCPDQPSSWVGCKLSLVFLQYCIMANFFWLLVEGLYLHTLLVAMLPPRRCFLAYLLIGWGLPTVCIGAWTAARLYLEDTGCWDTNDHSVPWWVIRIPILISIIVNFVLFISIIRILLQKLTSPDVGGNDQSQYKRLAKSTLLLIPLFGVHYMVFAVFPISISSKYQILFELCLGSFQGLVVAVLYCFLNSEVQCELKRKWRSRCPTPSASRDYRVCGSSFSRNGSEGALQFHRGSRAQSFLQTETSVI
Chain of UniProt O60307 (whole entry, looked up): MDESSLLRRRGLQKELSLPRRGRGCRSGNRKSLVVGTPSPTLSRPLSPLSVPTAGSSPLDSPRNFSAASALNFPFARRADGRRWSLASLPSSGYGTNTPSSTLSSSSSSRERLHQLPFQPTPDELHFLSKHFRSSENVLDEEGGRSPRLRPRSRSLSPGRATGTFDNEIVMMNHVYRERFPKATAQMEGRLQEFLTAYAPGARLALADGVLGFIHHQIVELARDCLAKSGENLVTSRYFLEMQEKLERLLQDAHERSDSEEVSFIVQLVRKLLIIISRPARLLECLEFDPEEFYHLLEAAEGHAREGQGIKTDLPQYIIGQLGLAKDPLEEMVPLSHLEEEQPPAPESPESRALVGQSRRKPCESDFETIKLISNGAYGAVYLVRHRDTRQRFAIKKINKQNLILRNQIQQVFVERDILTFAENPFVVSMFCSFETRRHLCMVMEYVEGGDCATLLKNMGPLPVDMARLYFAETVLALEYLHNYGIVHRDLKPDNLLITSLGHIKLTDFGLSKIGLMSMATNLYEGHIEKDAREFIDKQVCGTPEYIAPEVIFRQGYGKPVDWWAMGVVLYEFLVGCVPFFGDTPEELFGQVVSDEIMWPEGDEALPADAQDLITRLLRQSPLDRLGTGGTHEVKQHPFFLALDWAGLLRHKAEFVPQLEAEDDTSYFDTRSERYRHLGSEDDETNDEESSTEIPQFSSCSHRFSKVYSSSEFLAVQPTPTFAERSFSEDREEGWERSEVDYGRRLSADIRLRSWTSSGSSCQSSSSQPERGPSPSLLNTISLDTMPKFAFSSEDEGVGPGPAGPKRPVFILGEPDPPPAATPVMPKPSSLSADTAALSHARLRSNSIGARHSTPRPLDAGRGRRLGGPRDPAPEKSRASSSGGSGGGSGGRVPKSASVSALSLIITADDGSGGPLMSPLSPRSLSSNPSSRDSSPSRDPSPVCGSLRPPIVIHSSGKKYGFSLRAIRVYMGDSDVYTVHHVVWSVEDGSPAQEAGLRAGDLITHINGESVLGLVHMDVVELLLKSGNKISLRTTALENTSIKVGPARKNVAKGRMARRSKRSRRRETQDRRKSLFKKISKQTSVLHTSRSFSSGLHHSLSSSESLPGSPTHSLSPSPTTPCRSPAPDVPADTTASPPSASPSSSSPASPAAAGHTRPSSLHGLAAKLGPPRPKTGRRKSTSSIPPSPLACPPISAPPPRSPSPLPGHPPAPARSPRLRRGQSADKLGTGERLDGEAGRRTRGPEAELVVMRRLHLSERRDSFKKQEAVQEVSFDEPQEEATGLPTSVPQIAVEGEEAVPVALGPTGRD
Chain of UniProt O00141 (whole entry, looked up): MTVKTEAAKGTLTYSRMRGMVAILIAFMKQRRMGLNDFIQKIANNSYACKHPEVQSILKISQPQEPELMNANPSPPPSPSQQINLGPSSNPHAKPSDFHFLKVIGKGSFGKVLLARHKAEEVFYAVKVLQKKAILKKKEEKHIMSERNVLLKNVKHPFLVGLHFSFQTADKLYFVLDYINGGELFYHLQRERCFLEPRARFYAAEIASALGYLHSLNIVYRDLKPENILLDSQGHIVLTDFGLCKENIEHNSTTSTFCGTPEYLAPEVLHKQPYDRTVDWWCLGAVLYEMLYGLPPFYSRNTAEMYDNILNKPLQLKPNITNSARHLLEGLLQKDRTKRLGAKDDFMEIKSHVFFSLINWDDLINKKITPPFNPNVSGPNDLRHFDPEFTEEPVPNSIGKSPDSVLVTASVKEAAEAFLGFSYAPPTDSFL

COc1ccccc1-c1n[nH]c2nc(NC3CCN(C(=O)Cc4ccc(F)cc4F)CC3)ncc12
relative abundance (bead binding, competition bead pull-down, item: LINJ.30.2930; Leishmania donovani axenic amastigote extract; 10 µM; relative to: vehicle): 0.64

[Ga+3].[O-]c1ccc(Br)c2cccnc12.[O-]c1ccc(Br)c2cccnc12.[O-]c1ccc(Br)c2cccnc12
log P (oil/water; pH 7.4): 1.55

O=C1NC(=O)c2c1c1cc(F)c[n+]3c1c1c2c2cc(O)ccc2[n]1[Ru-4]312([N]=C=S)[S+]3CC[S+]1CC[S+]2CC3 (stereo not shown)
remaining activity (AURKA; enzyme activity; 100 nM, human enzyme, with: 10 µM ATP; relative to: untreated): 44%

O=C1NC2(CC2)COc2ncc(F)cc2[C@H]2COCCN2c2ccn3ncc1c3n2
mean corpuscular volume (Sprague-Dawley rat, female, blood; oral, 5 mg/kg/day, 4 weeks, end of treatment, subacute toxicity): 64.1 ± 3.3 fL

CC[C@H](C)[C@H](NC(=O)[C@H](CO)NC(=O)[C@H](Cc1ccc(O)cc1)NC(=O)[C@H](Cc1ccc(O)cc1)NC(=O)[C@H](CC(N)=O)NC(=O)CNC(=O)[C@H](CO)NC(=O)[C@H](Cc1ccc(O)cc1)NC(=O)[C@H](CO)NC(=O)[C@H](CO)NC(=O)[C@H](CC(N)=O)NC(=O)COCCOCCNC(=O)CN1CCN(CC(=O)O)CCN(CC(=O)O)CCN(CC(=O)O)CC1)C(=O)N[C@@H](CC(C)C)C(N)=O [copper-64 labelled]
maximum metastasis uptake (dynamic PET; tamoxifen-induced PDAC mouse model, metastases; 1.9 min, CLDN4-expressing tumours): 31 %IA/cc

CCCCCCCCCCCCCC(=O)N[C@H](CCN)C(=O)N[C@@H]1C(=O)N[C@@H](CCN)C(=O)N[C@@H](CC(C)C)C(=O)N[C@@H](CCN)C(=O)N[C@H](Cc2ccccc2)C(=O)N[C@@H](CC(C)C)C(=O)N[C@@H](CCN)C(=O)N[C@H](CCN)C(=O)N[C@@H](C(C)C)C(=O)N[C@@H](CC(=O)O)C(=O)O[C@@H]1C
MRT(0-inf) (rat, plasma; intravenous, 5 mg/kg): 289 min

C[C@H](O)[C@@H](NC(=O)[C@H]1CCCN1C(=O)[C@@H](CCCCN)NC(=O)[C@@H](CO)NC(=O)[C@@H](Cc1ccc(O)cc1)NC(=O)[C@@H](CC(N)=O)NC(=O)CCOCCOCCOCCNC(=O)CN1CCN(CC(=O)O)CCN(CC(=O)O)CCN(CC(=O)O)CC1)C(=O)N[C@H](CC(=O)O)C(=O)N[C@H](CCCNC(=N)N)C(=O)N[C@H](CCC(N)=O)C(=O)N[C@H](Cc1ccc(O)cc1)C(=O)N[C@H](Cc1c[nH]cn1)C(=O)N[C@H](Cc1ccccc1)C(N)=O [copper-64 labelled]
tissue uptake (C57BL/6J mice, stomach; intravenous, 1.85 MBq, 0.3333 h, radiolabelled): 1.15 ± 0.71 %ID/g

CC(CCC(=O)NCC(=O)O)C1CCC2C3C(O)CC4CC(OC5OC(C(=O)O)C(O)C(O)C5O)CCC4(C)C3CCC12C (stereo not shown)
glucuronide to parent ratio (women, T/T genotype, plasma; dose not given, geometric mean): 0.046

CC(=O)NCCCC[C@@H]1NC(=O)[C@H](Cc2c[nH]c3c(C)cccc23)NC(=O)[C@H]([C@@H](C)O)NC(=O)[C@H](CC(N)=O)NC(=O)[C@@H](NC(C)=O)C(C)(C)SSC(C)(C)[C@@H](C(=O)N[C@@H](Cc2ccc(OCCN)cc2)C(=O)N[C@@H](Cc2ccc3ccccc3c2)C(=O)NC2(C(=O)N[C@@H](CCC(=O)O)C(=O)N[C@@H](CC(N)=O)C(=O)N[C@@H](Cc3cccnc3)C(=O)N(C)CC(N)=O)CCOCC2)NC1=O
plasma protein binding (equilibrium dialysis; rabbit, plasma; 0.1 µM): 71.9 ± 0.9%

CC(C)[C@H]1NC(=O)C[C@H]2/C=C/CCSSC[C@@H](NC1=O)C(=O)N[C@H](Cc1cccc3ccccc13)C(=O)NCC(=O)O2
inhibition (SGK1 (Homo sapiens, UniProt O00141); enzyme activity, inhibitor; 10 µM): 10.5%

COc1nc(CC=C(C)CC=CC(C)=CC(C)C(OC2OC(CO)C(O)C(O)C2O)C(C)=CCO)c(C)c(O)c1OC (stereo not shown)
MRT(0-t) (male C57BL/6 mouse, plasma; intravenous, 2 mg/kg): 20.7 min

CS(C)(=O)=Nc1ccc(-c2ccc(-c3nc4cc(O[C@@H]5CO[C@H]6[C@@H]5OC[C@H]6O)[nH]c4cc3F)cc2)cc1
inhibition (AURKA; enzyme activity, inhibitor; 10 µM): 20%

CC(C)CC(C(=O)N1CC2(CC1C#N)C(=O)Nc1ccccc12)N(C)C(=O)c1cc2c(F)cc(F)c(F)c2[nH]1 (stereo not shown)
inhibition (Betacoronavirus 1; viral replication; HCT-8, OC43; 0.5 µM): 99.5%

NC1CCN(C(=O)Oc2ccc(C3CCCC4(C3)OOC3(O4)C4CC5CC(C4)CC3C5)cc2)CC1 (racemic)
logD (shake flask; PBS; pH 7.4): 4.54

CN(C)[C@H]1C[C@@]23CC[C@@]4(O2)C(=CC[C@]2(C)[C@@H](c5ccc6ccncc6c5)CC[C@H]24)C=C3[C@@H](O)[C@@H]1O
inhibition (MAST3 (Homo sapiens, UniProt O60307); ATP probe labelling, inhibitor, KiNativ profiling; 0.1 µM): -0.4%

CC(C)[C@@H]1NC(=O)CNC(=O)[C@H](CC(N)=O)NC(=O)[C@H](CCCNC(=N)N)NC(=O)[C@H](Cc2ccc(O)cc2)NC(=O)[C@H](C(C)C)NC(=O)[C@@H](NC(=O)[C@@H](NC(=O)[C@H](CC(N)=O)NC(=O)[C@H](Cc2c[nH]c3ccccc23)NC(=O)[C@H](C)NC(=O)[C@H](Cc2ccccc2)NC(=O)CNC(=O)[C@H](CCCCN)NC(=O)[C@H](Cc2ccccc2)NC(=O)[C@H](Cc2ccccc2)NC(=O)[C@H](CCCCN)NC(=O)OCC2c3ccccc3-c3ccccc32)C(C)C)CSSC[C@@H](C(=O)N[C@@H](Cc2c[nH]cn2)C(=O)N[C@@H](CCCNC(=N)N)C(=O)N[C@@H](CCCNC(=N)N)C(=O)N[C@@H](C)C(=O)N[C@@H](CC(N)=O)C(N)=O)NC(=O)[C@H](C(C)C)NC(=O)[C@H](CCCNC(=N)N)NC1=O
calcium (ICR mice, serum; intraperitoneal, 5 mg/kg, day 5): 1.36 ± 0.03 mmol/L

CCCC[C@H]1C(=O)N(C)[C@@H](CCCC)C(=O)N[C@@H](CCCNC(=O)CN2CCN(CC(=O)O)CCN(CC(=O)O)CCN(CC(=O)O)CC2)C(=O)N[C@H](C(=O)NCC(N)=O)CSCC(=O)N[C@@H](Cc2ccc(O)cc2)C(=O)N(C)[C@@H](C)C(=O)N[C@@H](CC(N)=O)C(=O)N2CCC[C@H]2C(=O)N[C@@H](Cc2c[nH]cn2)C(=O)N[C@@H](CC(C)C)C(=O)N(C)CC(=O)N[C@@H](Cc2c[nH]c3ccccc23)C(=O)N[C@@H](CO)C(=O)N[C@@H](Cc2c[nH]c3ccccc23)C(=O)N1C [gallium-68 labelled]
tissue uptake (NOD/SCID mice, CHO-hPD-L1 xenograft, skin; 60 min, PBS pretreatment): 3.53 ± 0.68 %ID/g

C#Cc1c(F)ccc2cc(O)cc(-c3ncc4c(N5CC6CCC(C5)N6C(=O)OC(C)OC(=O)C(C)C)nc(OC[C@@]56CCCN5C[C@H](F)C6)nc4c3F)c12 (stereo partly shown)
t1/2 (item: prodrug; mouse whole blood; 1 µM): 14.7 min

CC[C@H](C)[C@H](NC(=O)[C@H](CCCCN)NC(=O)CNC(=O)[C@H](CC(C)C)NC(=O)[C@H](Cc1ccccc1)NC(=O)[C@H](CCCCN)NC(=O)[C@H](CO)NC(=O)[C@H](Cc1ccccc1)NC(=O)[C@H](Cc1c[nH]c2ccccc12)NC(=O)[C@H](CCC(N)=O)NC(=O)[C@@H](NC(=O)[C@H](Cc1ccccc1)NC(=O)CCCCCNC(=O)CN1CCN(CC(=O)O)CCN(CC(=O)O)CCN(CC(=O)O)CC1)C(C)C)C(=O)N[C@@H](CCC(=O)O)C(=O)N1CCC[C@H]1C(=O)N[C@@H](CC(=O)O)C(=O)N[C@H](C(=O)N[C@@H](CO)C(=O)N[C@@H](CCC(N)=O)C(=O)N[C@H](C(=O)N[C@@H](CCC(N)=O)C(=O)N[C@@H](CC(=O)O)C(=O)N1CCC[C@H]1C(=O)N[C@@H](CC(N)=O)C(=O)N[C@@H](CC(=O)O)C(=O)N[C@@H](CCC(N)=O)C(=O)N[C@@H](Cc1ccc(O)cc1)C(=O)N[C@@H](CCC(=O)O)C(=O)N1CCC[C@H]1C(=O)N[C@@H](Cc1ccccc1)C(=O)O)C(C)C)C(C)C [copper-64 labelled]
SUVmean (dynamic PET; mouse both sexes, CT26 tumour, checkpoint inhibitor-treated, tumour; intravenous, 100 µCi/mouse, 1050 s): 3.46 SUV

CSCC[C@H](NC(=O)[C@H](CCC(N)=O)NC(=O)[C@H](CCCCN)NC(=O)[C@H](CCCNC(=N)N)NC(=O)[C@H](Cc1ccc(O)cc1)NC(=O)[C@H](CCCNC(=N)N)NC(=O)[C@H](CO)NC(=O)[C@H](Cc1ccc(O)cc1)NC(=O)[C@H](CO)NC(=O)[C@H](CC(=O)O)NC(=O)[C@@H](NC(=O)[C@@H](N)Cc1ccccc1)[C@@H](C)O)C(=O)N[C@@H](C)C(=O)N[C@H](C(=O)N[C@@H](CCCCN)C(=O)N[C@@H](CCCCn1cc(C[C@H](NC(=O)CNC(=O)[C@H](CO)NC(=O)[C@H](CCCNC(=N)N)NC(=O)[C@H](CO)NC(=O)[C@H](CC(C)C)NC(=O)[C@H](CC(C)C)NC(=O)CNC(=O)[C@H](C)NC(=O)[C@H](CC(C)C)NC(=O)[C@H](CCCNC(=N)N)NC(=O)[C@H](Cc2c[nH]cn2)NC(=O)[C@@H](NC(=O)[C@@H](N)C(C)C)[C@@H](C)O)C(=O)N[C@H](C(=O)N[C@H](C(=O)N[C@@H](CCCCN)C(=O)N[C@@H](CC(N)=O)C(=O)N[C@@H](CC(N)=O)C(=O)N[C@@H](Cc2ccccc2)C(=O)N[C@H](C(=O)N2CCC[C@H]2C(=O)N[C@H](C(=O)N[C@@H](CC(N)=O)C(=O)N[C@H](C(=O)NCC(=O)N[C@@H](CO)C(=O)N[C@@H](CCCCN)C(=O)N[C@@H](C)C(=O)N[C@@H](Cc2ccccc2)C(N)=O)C(C)C)[C@@H](C)O)C(C)C)C(C)C)C(C)C)nn1)C(=O)N[C@@H](Cc1ccc(O)cc1)C(=O)N[C@@H](CC(C)C)C(=O)N[C@@H](C)C(=O)N[C@@H](C)C(=O)N[C@H](C(=O)N[C@@H](CC(C)C)C(=O)NCC(=O)N[C@@H](CCCCN)C(=O)N[C@@H](CCCNC(=N)N)C(=O)N[C@@H](Cc1ccc(O)cc1)C(=O)N[C@@H](CCCCN)C(=O)N[C@@H](CCC(N)=O)C(=O)N[C@@H](CCCNC(=N)N)C(=O)N[C@H](C(=O)N[C@@H](CCCCN)C(=O)N[C@@H](CC(N)=O)C(=O)N[C@@H](CCCCN)C(N)=O)C(C)C)C(C)C)C(C)C
Kb (VIPR2 (Homo sapiens, UniProt P41587); cAMP accumulation, antagonist; with: PACAP-27): 155 nM

CC(C)C[C@H](N)C(=O)N1CCC[C@H]1C(=O)N[C@@H](Cc1ccccc1)C(=O)N[C@@H](Cc1ccccc1)C(=O)N[C@@H](CC(=O)O)C(N)=O
intact peptide remaining (RP-HPLC; 50% human serum; 100 µM, 24 h, 37 °C): 32%

CCCCC[C@H]1C(=O)N[C@H](C)C(=O)N(C)[C@@H](CCCCC)C(=O)N(C)[C@H](C)C(=O)N(C)[C@@H](CCCCC)C(=O)N[C@H](C)C(=O)N(C)[C@@H](CCCCC)C(=O)N(C)[C@H](C)C(=O)N1C
log Papp (PAMPA, HPLC-UV; 500 µM, pH 7.4): -5.67 ± 0.04

CC[C@H](C)[C@H](NC(=O)[C@H](C)NC(=O)[C@H](CCCCN)NC(=O)[C@H](CC(C)C)NC(=O)[C@@H](N)Cc1ccccc1)C(=O)N[C@@H](CCCCN)C(=O)N[C@@H](CCCCN)C(=O)N[C@@H](Cc1ccccc1)C(=O)NCC(=O)N[C@@H](CCCCN)C(=O)N[C@@H](CCC(=O)O)C(=O)N[C@@H](Cc1ccccc1)C(=O)N[C@@H](CCCCN)C(=O)N[C@@H](CCCCN)C(=O)N[C@H](C(=O)NCC(=O)N[C@@H](C)C(=O)N[C@@H](CCCCN)C(=O)N[C@@H](CC(C)C)C(=O)N[C@@H](CCCCN)C(=O)O)[C@@H](C)CC
hemolysis (human red blood cells; 0.25 mg/L, 1 h, mean of replicates): 0.286%

CN1Cc2cc(Cl)ccc2-n2c(nnc2C2CCN(c3cccc([18F])n3)CC2)C1
tissue uptake (C57BL/6 mouse male, liver; intravenous, 3.7 MBq, 15 min): 21.2 ± 5.26 %ID/g

Cn1nc(NS(C)(=O)=O)c2c(Cl)ccc(-n3c([C@H](Cc4cc(F)cc(F)c4)NC(=O)Cn4nc(C(F)F)c5c4C(F)(F)[C@@H]4C[C@H]54)nc4nc(OCCC(F)(F)F)ccc4c3=O)c21
Cmax (human, plasma; oral, 125 mg single dose, powder in bottle, geometric mean): 107 ng/mL

A few entries again:
NC1CCN(C(=O)Oc2ccc(C3CCCC4(C3)OOC3(O4)C4CC5CC(C4)CC3C5)cc2)CC1 (racemic)
logD (shake flask; PBS; pH 7.4): 4.54

CC(C)CC(C(=O)N1CC2(CC1C#N)C(=O)Nc1ccccc12)N(C)C(=O)c1cc2c(F)cc(F)c(F)c2[nH]1 (stereo not shown)
inhibition (Betacoronavirus 1; viral replication; HCT-8, OC43; 0.5 µM): 99.5%
